{"data": "Published values from different studies", "Trypanothione synthetase": "Trypanothione synthetase (Trypanosoma brucei brucei, UniProt Q586P2)", "ADRB1": "Beta-1 adrenergic receptor (ADRB1, Homo sapiens, UniProt P08588)", "plsY": "Glycerol-3-phosphate acyltransferase (plsY, Streptococcus pneumoniae, UniProt P0A4Q0)", "AVPR1B": "Vasopressin V1b receptor (AVPR1B, Homo sapiens, UniProt P47901)", "note": "Compare with care: the assays were run in different laboratories. Values joined by “and” are separate records of one study, mostly repeats; a detail may differ. ± marks the error that the study gave.", "chain of UniProt P47901 (whole entry, looked up)": "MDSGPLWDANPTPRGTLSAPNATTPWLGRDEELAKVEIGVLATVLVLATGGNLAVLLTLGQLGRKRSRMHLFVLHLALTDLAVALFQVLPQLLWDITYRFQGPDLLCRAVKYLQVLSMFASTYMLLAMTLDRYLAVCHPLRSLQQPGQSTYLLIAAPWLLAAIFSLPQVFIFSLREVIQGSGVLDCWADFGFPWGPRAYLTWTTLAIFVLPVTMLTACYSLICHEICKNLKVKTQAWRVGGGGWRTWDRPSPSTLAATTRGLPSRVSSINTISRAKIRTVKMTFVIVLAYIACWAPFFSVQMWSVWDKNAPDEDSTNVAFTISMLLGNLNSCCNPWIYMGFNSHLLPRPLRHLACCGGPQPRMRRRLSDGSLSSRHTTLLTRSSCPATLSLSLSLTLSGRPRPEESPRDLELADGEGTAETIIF", "chain of UniProt P0A4Q0 (whole entry, looked up)": "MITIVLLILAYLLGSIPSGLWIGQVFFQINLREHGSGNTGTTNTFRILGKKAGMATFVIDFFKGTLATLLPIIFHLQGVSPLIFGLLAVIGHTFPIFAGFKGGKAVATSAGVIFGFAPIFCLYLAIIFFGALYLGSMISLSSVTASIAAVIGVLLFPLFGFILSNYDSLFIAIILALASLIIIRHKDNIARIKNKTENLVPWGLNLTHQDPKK", "chain of UniProt P08588 (whole entry, looked up)": "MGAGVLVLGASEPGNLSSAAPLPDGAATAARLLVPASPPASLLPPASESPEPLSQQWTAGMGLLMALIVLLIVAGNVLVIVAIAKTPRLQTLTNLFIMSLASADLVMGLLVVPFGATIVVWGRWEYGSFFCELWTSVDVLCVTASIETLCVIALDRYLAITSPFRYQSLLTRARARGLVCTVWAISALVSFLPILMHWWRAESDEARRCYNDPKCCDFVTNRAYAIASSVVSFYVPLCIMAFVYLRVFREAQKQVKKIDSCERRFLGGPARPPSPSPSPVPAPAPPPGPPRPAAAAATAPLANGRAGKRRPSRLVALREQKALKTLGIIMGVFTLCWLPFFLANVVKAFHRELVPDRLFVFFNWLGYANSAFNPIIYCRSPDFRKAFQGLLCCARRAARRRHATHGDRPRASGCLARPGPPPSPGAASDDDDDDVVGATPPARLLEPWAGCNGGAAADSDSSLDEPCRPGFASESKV", "chain of UniProt Q13233 (whole entry, looked up)": "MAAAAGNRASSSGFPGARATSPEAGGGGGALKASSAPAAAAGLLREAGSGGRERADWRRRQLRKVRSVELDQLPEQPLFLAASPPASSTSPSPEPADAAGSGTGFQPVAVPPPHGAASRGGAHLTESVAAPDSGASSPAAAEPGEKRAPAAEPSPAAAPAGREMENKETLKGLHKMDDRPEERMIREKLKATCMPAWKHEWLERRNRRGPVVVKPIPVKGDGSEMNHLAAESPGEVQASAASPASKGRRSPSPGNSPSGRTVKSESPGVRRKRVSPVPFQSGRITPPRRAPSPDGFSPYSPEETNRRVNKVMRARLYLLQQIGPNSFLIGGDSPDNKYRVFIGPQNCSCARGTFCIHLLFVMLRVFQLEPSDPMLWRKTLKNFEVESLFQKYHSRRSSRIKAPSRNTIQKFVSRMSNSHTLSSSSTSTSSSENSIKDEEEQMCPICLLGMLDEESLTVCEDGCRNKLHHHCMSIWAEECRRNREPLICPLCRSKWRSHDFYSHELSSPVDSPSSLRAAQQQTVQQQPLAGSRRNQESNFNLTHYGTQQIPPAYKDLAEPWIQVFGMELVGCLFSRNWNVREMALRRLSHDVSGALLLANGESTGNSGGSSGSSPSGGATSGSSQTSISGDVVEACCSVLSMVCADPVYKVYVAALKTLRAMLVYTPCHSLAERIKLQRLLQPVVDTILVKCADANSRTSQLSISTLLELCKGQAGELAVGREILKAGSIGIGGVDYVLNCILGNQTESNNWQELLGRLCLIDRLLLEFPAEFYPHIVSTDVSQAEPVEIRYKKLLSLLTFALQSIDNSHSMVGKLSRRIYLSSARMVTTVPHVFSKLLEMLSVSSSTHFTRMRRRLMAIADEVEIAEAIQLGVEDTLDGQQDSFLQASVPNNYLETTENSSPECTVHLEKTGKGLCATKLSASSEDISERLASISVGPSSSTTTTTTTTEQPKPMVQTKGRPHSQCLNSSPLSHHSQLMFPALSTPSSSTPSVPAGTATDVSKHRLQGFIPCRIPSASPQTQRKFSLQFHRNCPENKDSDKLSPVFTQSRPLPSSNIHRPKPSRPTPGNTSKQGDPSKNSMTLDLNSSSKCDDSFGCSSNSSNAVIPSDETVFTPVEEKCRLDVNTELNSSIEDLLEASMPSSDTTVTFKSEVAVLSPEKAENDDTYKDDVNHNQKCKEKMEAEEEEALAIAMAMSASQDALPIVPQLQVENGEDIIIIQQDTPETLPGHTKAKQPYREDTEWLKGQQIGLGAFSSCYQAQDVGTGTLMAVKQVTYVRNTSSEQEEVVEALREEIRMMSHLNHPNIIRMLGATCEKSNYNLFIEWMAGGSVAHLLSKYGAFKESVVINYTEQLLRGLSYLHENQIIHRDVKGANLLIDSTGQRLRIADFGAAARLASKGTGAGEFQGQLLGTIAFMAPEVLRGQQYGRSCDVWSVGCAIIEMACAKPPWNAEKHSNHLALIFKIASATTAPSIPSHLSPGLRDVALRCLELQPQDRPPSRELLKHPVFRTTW", "chain of UniProt P06239 (whole entry, looked up)": "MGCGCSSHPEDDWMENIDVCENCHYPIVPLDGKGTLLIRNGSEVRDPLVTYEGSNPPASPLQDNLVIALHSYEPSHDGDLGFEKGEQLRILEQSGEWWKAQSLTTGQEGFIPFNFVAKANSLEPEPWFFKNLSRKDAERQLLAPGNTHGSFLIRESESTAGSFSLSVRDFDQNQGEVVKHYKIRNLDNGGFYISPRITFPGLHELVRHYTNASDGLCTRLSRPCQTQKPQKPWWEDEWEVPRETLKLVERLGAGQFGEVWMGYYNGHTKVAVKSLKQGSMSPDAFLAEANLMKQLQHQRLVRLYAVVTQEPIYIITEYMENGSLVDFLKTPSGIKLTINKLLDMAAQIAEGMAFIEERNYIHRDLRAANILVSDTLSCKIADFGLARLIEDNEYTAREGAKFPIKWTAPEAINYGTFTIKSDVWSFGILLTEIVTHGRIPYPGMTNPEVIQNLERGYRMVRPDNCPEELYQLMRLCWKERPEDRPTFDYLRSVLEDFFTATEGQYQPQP", "chain of UniProt A5K9W3 (whole entry, looked up)": "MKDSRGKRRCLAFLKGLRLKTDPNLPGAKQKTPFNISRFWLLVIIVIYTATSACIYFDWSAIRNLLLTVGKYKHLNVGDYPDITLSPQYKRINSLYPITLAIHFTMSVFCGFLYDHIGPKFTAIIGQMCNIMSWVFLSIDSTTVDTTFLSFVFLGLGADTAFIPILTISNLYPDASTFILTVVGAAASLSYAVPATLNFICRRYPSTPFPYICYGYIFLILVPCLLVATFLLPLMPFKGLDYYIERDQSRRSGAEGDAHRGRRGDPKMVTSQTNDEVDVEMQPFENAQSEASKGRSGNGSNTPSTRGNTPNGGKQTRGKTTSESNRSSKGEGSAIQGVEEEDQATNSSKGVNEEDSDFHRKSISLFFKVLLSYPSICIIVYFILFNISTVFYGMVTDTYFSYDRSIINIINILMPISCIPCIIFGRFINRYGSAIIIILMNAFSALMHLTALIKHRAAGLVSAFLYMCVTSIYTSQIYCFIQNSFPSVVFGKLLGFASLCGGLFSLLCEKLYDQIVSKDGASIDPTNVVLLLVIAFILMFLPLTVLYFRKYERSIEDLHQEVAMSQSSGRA", "chain of UniProt P50897 (whole entry, looked up)": "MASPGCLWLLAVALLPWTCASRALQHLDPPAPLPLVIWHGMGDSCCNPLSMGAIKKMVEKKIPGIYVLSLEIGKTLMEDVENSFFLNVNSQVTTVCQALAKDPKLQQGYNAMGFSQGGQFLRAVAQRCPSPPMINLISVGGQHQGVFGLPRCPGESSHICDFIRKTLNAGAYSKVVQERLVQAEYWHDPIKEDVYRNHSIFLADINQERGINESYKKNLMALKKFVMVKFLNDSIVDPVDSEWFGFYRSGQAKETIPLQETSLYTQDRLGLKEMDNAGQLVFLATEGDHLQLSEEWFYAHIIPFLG", "chain of UniProt P49841 (whole entry, looked up)": "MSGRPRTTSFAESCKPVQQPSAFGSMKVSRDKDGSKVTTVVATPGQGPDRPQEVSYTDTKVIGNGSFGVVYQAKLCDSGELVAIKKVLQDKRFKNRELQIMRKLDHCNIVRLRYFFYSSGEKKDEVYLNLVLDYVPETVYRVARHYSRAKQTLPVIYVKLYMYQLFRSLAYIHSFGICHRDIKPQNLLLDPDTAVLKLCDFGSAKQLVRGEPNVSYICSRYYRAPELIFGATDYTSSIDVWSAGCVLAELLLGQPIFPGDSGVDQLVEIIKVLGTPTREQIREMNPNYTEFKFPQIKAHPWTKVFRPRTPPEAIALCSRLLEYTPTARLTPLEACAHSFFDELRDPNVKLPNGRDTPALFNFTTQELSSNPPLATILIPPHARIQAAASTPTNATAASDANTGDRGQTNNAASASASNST", "chain of UniProt O75716 (whole entry, looked up)": "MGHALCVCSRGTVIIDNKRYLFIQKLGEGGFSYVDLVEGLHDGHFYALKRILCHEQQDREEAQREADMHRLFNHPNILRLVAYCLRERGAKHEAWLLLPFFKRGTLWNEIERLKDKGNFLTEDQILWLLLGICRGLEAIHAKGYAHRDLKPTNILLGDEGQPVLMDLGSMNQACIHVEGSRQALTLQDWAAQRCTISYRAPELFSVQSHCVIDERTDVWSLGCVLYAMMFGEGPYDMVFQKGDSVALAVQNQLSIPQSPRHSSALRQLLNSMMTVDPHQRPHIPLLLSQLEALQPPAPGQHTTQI"}
{"Structure (SMILES)": "O=C(NCc1ccc(S(=O)(=O)N2CCOCC2)s1)c1cc(Cl)ccc1Cl", "target": "Trypanothione synthetase", "assay": "enzyme activity, BIOMOL Green phosphate release", "setting": "25 µM", "measurement": "inhibition", "result": "40.4 ± 5.8%"}
{"Structure (SMILES)": "CN1CCN(c2cc(-c3ccncc3)c(-c3ccc4ccccc4c3)nn2)CC1", "target": "ADRB1", "assay": "antagonist, FLIPR", "setting": "10 µM", "measurement": "inhibition", "result": "11.4%"}
{"Structure (SMILES)": "CCCCCCCCCCCCCCCC(=O)C(F)(F)P(=O)(O)O", "target": "plsY", "assay": "inhibitor", "setting": "200 µM", "measurement": "inhibition", "result": "99%"}
{"Structure (SMILES)": "Cc1nc(-c2ccsc2)sc1C(=O)N1CCCc2ccc(F)cc21", "target": "Trypanothione synthetase", "assay": "enzyme activity, BIOMOL Green phosphate release", "setting": "25 µM", "measurement": "inhibition", "result": "31.8 ± 2.1%"}
{"Structure (SMILES)": "CC(C)N1CCC[C@H]1CNC(=O)c1cn(C2CCCC2)c(=O)c2c1c1ccccc1n2C", "target": "GABAA receptor benzodiazepine site, rat brain", "assay": "radioligand binding", "setting": "10 µM", "measurement": "inhibition", "result": "12%"}
{"Structure (SMILES)": "CC(C)CC(=O)OC[C@H]1O[C@@](C#N)(c2ccc3c(N)ncnn23)[C@H](O)[C@@H]1O", "target": "Protein kinase C alpha type (PRKCA, Homo sapiens, UniProt P17252)", "setting": "20 µM", "measurement": "inhibition", "result": "-8%"}
{"Structure (SMILES)": "C[C@H]1CN(c2n[nH]c3nc(N[C@H]4CC[C@H](NS(=O)(=O)CCC(F)(F)F)CC4)ncc23)CCO1", "target": "Far upstream element-binding protein 2 (KHSRP, Homo sapiens, UniProt Q92945)", "assay": "biochemical", "measurement": "IC50", "result": "≥ 20 µM"}
{"Structure (SMILES)": "COc1ccc(N2C(=O)N(c3c(C)cccc3Cl)Cc3cnc(Nc4ccc(C5CCN(C)CC5)cc4OC)nc32)nc1", "target": "Serine/threonine-protein kinase 16 (STK16, Homo sapiens, UniProt O75716)", "assay": "kinase activity", "setting": "0.5 µM", "measurement": "inhibition", "result": "-1.84%"}
{"Structure (SMILES)": "CCc1cc(=O)[nH]c(-n2nc(C)cc2NC(=O)c2cc(C)ccc2F)n1", "target": "Tyrosine-protein kinase Lck (LCK, Homo sapiens, UniProt P06239)", "assay": "radiometric kinase", "setting": "10 µM", "measurement": "inhibition", "result": "no inhibition"}
{"Structure (SMILES)": "COCc1c(-c2cc3cc(C)cc(OC)c3s2)c2c(N)ncnn2c1CN1CCNC(=O)C1", "target": "AMPA receptor", "assay": "radioligand binding", "setting": "10 µM", "measurement": "inhibition", "result": "0%"}
{"Structure (SMILES)": "CN(C(=O)n1cnc(-c2ccc[n+]([O-])c2)c1)C1CCCCC1", "target": "AVPR1B", "assay": "radioligand binding", "setting": "50 µM, together with: [3H]arginine vasopressin", "measurement": "inhibition", "result": "10%"}
{"Structure (SMILES)": "COc1cc2c(NC3CCN(C)CC3)cc(-c3ccc(C)o3)nc2cc1OCCCN1CCCC1", "target": "DNA (cytosine-5)-methyltransferase 1 (DNMT1, Homo sapiens, UniProt P26358)", "assay": "enzyme activity", "setting": "45.72 nM", "measurement": "inhibition", "result": "-8.89%"}
{"Structure (SMILES)": "CCCCCCCCCCCCCCCC(=O)NS(=O)(=O)Oc1ccc(OC)cc1", "target": "plsY", "assay": "inhibitor", "setting": "200 µM", "measurement": "inhibition", "result": "100%"}
{"Structure (SMILES)": "NCc1cc(=O)[nH]o1", "target": "GABA-A receptor agonist site (rat)", "assay": "radioligand binding", "system": "rat brain", "setting": "1×10 µM", "measurement": "inhibition", "result": "94.3%"}
{"Structure (SMILES)": "O=C(Nc1cnccc1Cl)N1CCN(Cc2ccc3c(c2)OC(F)(F)O3)CC1", "target": "AVPR1B", "assay": "binding", "setting": "10 µM, together with: [3H][Arg8]vasopressin", "measurement": "inhibition", "result": "13%"}
{"Structure (SMILES)": "Cn1cccc1-c1cccnc1", "target": "Muscarinic acetylcholine receptor M2 (CHRM2, Homo sapiens, UniProt P08172)", "assay": "binding", "setting": "50 µM", "measurement": "inhibition", "result": "24.9%"}
{"Structure (SMILES)": "CN(CCN1CCC(OC(=O)Nc2ccccc2-c2ccccc2)CC1)C(=O)c1ccc(CN2CCC(C(N)=O)CC2)cc1", "target": "phosphodiesterase IV, human", "assay": "enzyme activity", "setting": "1 µM", "measurement": "inhibition", "result": "-4%"}
{"Structure (SMILES)": "COc1cc(Nc2ncc(F)c(Nc3ccc4c(n3)NC(=O)C(C)(C)O4)n2)cc(OC)c1OC", "target": "Mitogen-activated protein kinase kinase kinase 1 (MAP3K1, Homo sapiens, UniProt Q13233)", "assay": "KINOMEscan", "setting": "10 µM", "measurement": "inhibition", "result": "37%"}
{"Structure (SMILES)": "FC(F)(F)c1cccc(Nc2nc(NCCOc3ccccc3)nc3[nH]cnc23)c1", "target": "Cyclin-dependent kinase 2, with cyclin A (CDK2, Homo sapiens, UniProt P24941)", "assay": "enzyme activity, inhibitor, Thermo Fisher kinase screening", "setting": "5 µM", "measurement": "inhibition", "result": "7% and 5%"}
{"Structure (SMILES)": "O=C(Cc1c[nH]c2cc(Cl)ccc12)N1CCC(n2ccnc2)CC1", "target": "Trypanothione synthetase", "assay": "enzyme activity, BIOMOL Green phosphate release", "setting": "25 µM", "measurement": "inhibition", "result": "38.1 ± 7.2%"}
{"Structure (SMILES)": "O=C(Nc1cccnn1)N1CCC(=Cc2cccc(Oc3ccc(C(F)(F)F)cn3)c2)CC1", "target": "AVPR1B", "assay": "binding", "setting": "50 µM, together with: [3H][Arg8]vasopressin", "measurement": "inhibition", "result": "18%"}
{"Structure (SMILES)": "Cc1[nH]ncc1S(=O)(=O)NCc1cccc(-n2cccn2)c1", "target": "Trypanothione synthetase", "assay": "enzyme activity, BIOMOL Green phosphate release", "setting": "25 µM", "measurement": "inhibition", "result": "40 ± 5.8%"}
{"Structure (SMILES)": "Cc1ncc(C)n2nc(/C=C/c3nc(N4CCCC4)cc(N4CCOCC4)n3)nc12", "target": "AMPA receptor", "assay": "binding", "setting": "10 µM", "measurement": "inhibition", "result": "-8%"}
{"Structure (SMILES)": "CCCCCCCC/C=C\\CCCCCCCCNC(=O)CP(=O)(O)O", "target": "plsY", "assay": "inhibitor", "setting": "200 µM", "measurement": "inhibition", "result": "49%"}
{"Structure (SMILES)": "O=[N+]([O-])c1ccc(O)c([N+](=O)[O-])c1", "target": "Palmitoyl-protein thioesterase 1 (Homo sapiens, UniProt P50897)", "assay": "Spectrum Collection screen", "setting": "concentration not given, together with: substrate 20 µM", "measurement": "inhibition", "result": "87.9%"}
{"Structure (SMILES)": "CCCCCC/C=C\\CCCCCCCCCC(=O)NP(=O)(O)O", "target": "plsY", "assay": "inhibitor", "setting": "200 µM", "measurement": "inhibition", "result": "93%"}
{"Structure (SMILES)": "NCCCC[C@H](N)C(=O)O", "target": "Cationic amino acid transporter 8 (NPT1, Plasmodium vivax, UniProt A5K9W3)", "setting": "100 µM", "measurement": "inhibition", "result": "98.7%"}
{"Structure (SMILES)": "CCCC(=O)CP(=O)(O)O", "target": "plsY", "assay": "inhibitor", "setting": "200 µM", "measurement": "inhibition", "result": "18%"}
{"Structure (SMILES)": "O=c1ccc2ccccc2o1", "target": "ADRB1", "assay": "agonist radioligand binding", "setting": "10 µM, SafetyScreen44", "measurement": "inhibition", "result": "1.82%"}
{"Structure (SMILES)": "c1ccc(C(NCCNC(c2ccccc2)c2ccccc2)c2ccccc2)cc1", "target": "Glycogen synthase kinase-3 beta (GSK3B, Homo sapiens, UniProt P49841)", "assay": "activity", "setting": "10 µM, Eurofins selectivity panel", "measurement": "inhibition", "result": "-3%"}
{"Structure (SMILES)": "Cc1[nH]c2ccc(F)cc2c1CC(=O)N1CCN(c2ncccn2)CC1", "target": "Trypanothione synthetase", "assay": "enzyme activity, BIOMOL Green phosphate release", "setting": "25 µM", "measurement": "inhibition", "result": "27 ± 28.4%"}
{"Structure (SMILES)": "O=C(O)c1nccnc1NC(=O)c1cccc2ccccc12", "target": "panD (Mycobacteroides abscessus, UniProt B1MGV7, E120A)", "setting": "200 µM", "measurement": "inhibition", "result": "70.5%"}
{"note": "Repeated from above:"}
{"Structure (SMILES)": "COc1ccc(N2C(=O)N(c3c(C)cccc3Cl)Cc3cnc(Nc4ccc(C5CCN(C)CC5)cc4OC)nc32)nc1", "target": "Serine/threonine-protein kinase 16 (STK16, Homo sapiens, UniProt O75716)", "assay": "kinase activity", "setting": "0.5 µM", "measurement": "inhibition", "result": "-1.84%"}
{"Structure (SMILES)": "CCCCCCCCCCCCCCCC(=O)C(F)(F)P(=O)(O)O", "target": "plsY", "assay": "inhibitor", "setting": "200 µM", "measurement": "inhibition", "result": "99%"}
{"Structure (SMILES)": "Cc1ncc(C)n2nc(/C=C/c3nc(N4CCCC4)cc(N4CCOCC4)n3)nc12", "target": "AMPA receptor", "assay": "binding", "setting": "10 µM", "measurement": "inhibition", "result": "-8%"}
{"Structure (SMILES)": "CCCCCCCCCCCCCCCC(=O)NS(=O)(=O)Oc1ccc(OC)cc1", "target": "plsY", "assay": "inhibitor", "setting": "200 µM", "measurement": "inhibition", "result": "100%"}
